# Measurements from different studies.
# Lines come from different studies, so protocols differ. ± marks the error that the study gave.
# Cell line: HL-60
SMILES,assay,system,setting,scale,endpoint,result
S=C([S][Au-][P+](CCCCCC[P+]([Au-][S]C(=S)n1cccn1)(c1ccccc1)c1ccccc1)(c1ccccc1)c1ccccc1)n1cccn1,"cell growth, NCI-60 screen",,leukemia,,log10 TGI,-6.01
C=Cc1c(C)c2cc3nc(c4c5[nH]c(cc6nc(cc1[nH]2)C(C)=C6CC)c(C)c5C(=O)C4)[C@@H](CCC(=O)O)[C@@H]3C,"cell entry, flow cytometry",,50% human serum,,time of peak fluorescence,1 h
C[C@@H]1CC2=C(CN1Cc1cccc(C#N)c1)C(=O)N(Cc1cccc(Br)c1)C1=NCCN12,"cell growth, MTS",,,,IC50,22.4 ± 1.62 nM
CCCCCCCC(=O)Nc1ncc(Cc2cccc(OCc3cn(CCOC)nn3)c2)s1,"cell viability, MTS",,10 µM,,inhibition,24.3 ± 6.9%
CCn1cc(-c2cc(Cn3ccnc3)cc3c2CCN([C@H](c2cc(OC)ccn2)C2CC2)C3=O)c(C(F)(F)F)n1,"cell growth, inhibitor",,120 h,,EC50,8470 nM
CN1C(=O)C(=O)c2cc3c(c4c2c1cc1ccccc14)OCO3,"cytotoxicity, XTT",,"50 µg/mL, 48 h",,inhibition,< 50%
C[C@@H]1CC2=C(CN1Cc1cccc(C#N)c1)C(=O)N(Cc1ccc(Br)c(F)c1)C1=NCCN12,"cell growth, MTS",,,,IC50,28.9 ± 5.29 nM
c1cc(-c2cc3ncc(OCC4CCNCC4)nc3cc2-c2cccc(N3CCCCC3)c2)cc(N2CCCCC2)c1,"cell proliferation, XTT",,7 days,,EC50,890 ± 260 nM
Cc1cc(C)nc(SCC(=O)Nc2ncc(Cc3cccc(OCc4cn(Cc5ccc(OCCN6CCOCC6)cc5)nn4)c3)s2)n1,"cell viability, MTS",,10 µM,,inhibition,13.4 ± 9%
O=C1NCCc2[nH]c(-c3ccncc3)cc21,"cytotoxicity, MTS",NCI60 panel,acute myeloid leukaemia,,IC50,247 nM
C[C@H]1C2=C(CCN1Cc1cccc(C#N)c1)N1CCN=C1N(Cc1ccc(Br)cc1)C2=O,"cell growth, MTS",,,,IC50,> 250 nM
c1ccc(Oc2ccc(Nc3ccc4ncc(OCC5CCNCC5)nc4c3)cc2)cc1,"cell proliferation, XTT",,7 days,,EC50,1200 ± 120 nM
Sc1ncnc2nc[nH]c12,radioactive counts,,"1 µM, 14C-labelled compound",higher = more incorporation,DNA radioactivity,124 a.u.
C[C@@H]1CC2=C(CN1Cc1cccc(C#N)c1)C(=O)N(Cc1cccc3ccccc13)C1=NCCN12,"cell growth, MTS",,,,IC50,28.2 ± 2.38 nM
O=C(c1ccc2[nH]ccc2c1)N1CCN(S(=O)(=O)c2ccc3[nH]c(=O)oc3c2)CC1,"NUDT15 inhibitor, mass spectrometry",,"10 µM, 16 h, together with: 6-thioguanine 0 µM",higher = more incorporation,6-thio-GTP in RNA,8.8 a.u.
c1ccc(COc2ccc(Nc3ccc4ncc(OCC5CCNCC5)nc4c3)cc2)cc1,"cell proliferation, XTT",,7 days,,EC50,1400 ± 400 nM

# Some of these lines once more:
SMILES,assay,system,setting,scale,endpoint,result
C=Cc1c(C)c2cc3nc(c4c5[nH]c(cc6nc(cc1[nH]2)C(C)=C6CC)c(C)c5C(=O)C4)[C@@H](CCC(=O)O)[C@@H]3C,"cell entry, flow cytometry",,50% human serum,,time of peak fluorescence,1 h
C[C@@H]1CC2=C(CN1Cc1cccc(C#N)c1)C(=O)N(Cc1cccc(Br)c1)C1=NCCN12,"cell growth, MTS",,,,IC50,22.4 ± 1.62 nM
